Experimental data from different studies.
A part holds a random share of what one study measured. Substitutions count along the parent as printed.

Series 1 — technique: aptamer microarray, sandwich; form: DNA with 2'F-ANA; medium: in vitro; tested at: 200 nM; added: Cy3 exosite-II aptamer, 400 nM; direction: higher = stronger binding; sequence: GGTTGGTGTGGTTGG
Target: Prothrombin, mature alpha-thrombin (F2, Homo sapiens, UniProt P00734)
Setting: whole 15-mer aptamer, many near background
| Modification | mean fluorescence intensity |
| --- | --- |
| 2'F-ANA at 2 5 7 8 10 12 14 | 50.7 a.u. |
| 2'F-ANA at 1 2 3 5 7 10 11 13 15 | 48.1 a.u. |
| 2'F-ANA at 2 3 5 6 8 10 12 13 15 | 56.6 a.u. |
| 2'F-ANA at 2 6 10 12 13 14 | 86.6 a.u. |
| 2'F-ANA at 1 3 6 8 9 | 322 a.u. |
| 2'F-ANA at 2 4 5 6 8 9 11 13 14 15 | 46.1 a.u. |
| 2'F-ANA at 1 2 5 6 7 8 9 13 14 15 | 67.4 a.u. |
| 2'F-ANA at 3 6 8 9 10 11 13 14 | 361 a.u. |

Series 2 — technique: RNA Bind-n-Seq; form: RNA; medium: in vitro; tested at: not given; reference: input RNA pool; direction: higher = stronger binding
Target: RING finger protein unkempt homolog, zinc fingers 1-6, GST-SBP tag (UNK, Homo sapiens, UniProt Q9C0B0, residues 30-357)
Setting: RNA with constant flanks, human-mouse chimeric sites, ends assumed
All sequences stand within: GGGAGUUCUACAGUCCGACGAUC … CAACAGAGGAUUGAGCAUCA
Residues (chain): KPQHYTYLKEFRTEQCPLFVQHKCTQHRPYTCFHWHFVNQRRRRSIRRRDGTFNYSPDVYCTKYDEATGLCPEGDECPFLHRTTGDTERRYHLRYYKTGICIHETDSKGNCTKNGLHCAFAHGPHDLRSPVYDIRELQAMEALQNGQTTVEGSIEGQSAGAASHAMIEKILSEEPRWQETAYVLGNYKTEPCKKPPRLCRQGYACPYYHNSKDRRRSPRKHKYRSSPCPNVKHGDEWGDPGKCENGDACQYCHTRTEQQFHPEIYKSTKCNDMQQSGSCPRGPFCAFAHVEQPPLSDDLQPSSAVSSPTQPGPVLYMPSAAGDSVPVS
| Sequence | bound/input enrichment [ratio] |
| --- | --- |
| UCUGGUCACACUCGUGUGUAUGGUGUUUGCUUUGUGGAUACUUCACUGGGAAAGUUUUUCAUCGGCCAGUUUUCGGAUGACCGCCACUGUUCCAGAUUUAGGACGCUAGUGGCUCACUAU | 0.257 |
| GAAACAUUUAAAUUUAAAGAAGCUGUUGUUCUAGGAAGUACGGACUUUCUAGAAGAUGAUAUAGAGAAAAUUGUAGAAGAACUGGGAAAAGAGUAUAAAGGCAAUGCCUACCAUCUGAUG | 1.12 |
| GUGCCCUUCUCGCUGCUGCGGAGCCCGAGCUGGGAACCAUUCCGGGACGACUGGUACGCACACAGCCGCCUCUUCGAUCAAGCUUUCGGGCUGCCCCGGUUGCCCGAUGAGUGGUCGCAG | 0.0712 |
| UUUCUACUGCAGCAGACGAUGCUAAGAAUUAAGGAUCCUAAGAAGUCCCUGGAUUUUUAUACGAGGGUUCUUGGAAUGACCCUCCUGCAGAAGCUUGACUUCCCUGCUAUGAAGUUCUCG | 0.101 |
| GAGCCCAGCCGGCAGUUUGUAAAGGACUCAAUUCGGCUGGUUAAAAGAUGCACCAAACCUGAUAGAAAAGAAUUCCAGAAGAUUGCCAUGGCUACAGCUAUAGGAUUUGCUAUCAUGGGA | 0.287 |
| AGAAUCUUGGGACUGUUUUGCUUGAUUGGUCAUUGAUAGCUUAACAAACAUGGAGAUGAGAUUAGAAAUCUUGACAUCAACAGGUAUUAAGCAGAAAAAACCAUGGCCACGUGUCUCCUG | 0.122 |
| GAUGAUAAUCACACAAACAAGUCACUGUUAUGUGACCAGCCUUGGGAUUCUUUUCCUGAUUAAUAUUCUCCCUGGAACCACUAGCCAAGGGGAAUCAAGACGACAAGAACCCGGGGACUU | 0.193 |
| UGUGCCCCACAAGAUCCUGAAGUUUGAGCAGCUGAAGUUGACUCCCUCUCCUUGCCUGAACCCCCCCCCACUGCCCCCCCAUCCCCCAGUGUCGGCUGAGAUGUUGCCUCUGCACGGUUC | 1.32 |

Series 3 — technique: RNA Bind-n-Seq; form: RNA; medium: in vitro; tested at: 15 pmol; setting: 4-mer, random 30-nt RNA, single round; added: DMSO vehicle, 2 mM AMP-PNP; reference: input library; direction: higher = stronger binding
Target: Eukaryotic initiation factor 4A-I (EIF4A1, Homo sapiens, UniProt P60842, residues 1-406, full length assumed)
UniProt P60842, sequence (whole entry, looked up): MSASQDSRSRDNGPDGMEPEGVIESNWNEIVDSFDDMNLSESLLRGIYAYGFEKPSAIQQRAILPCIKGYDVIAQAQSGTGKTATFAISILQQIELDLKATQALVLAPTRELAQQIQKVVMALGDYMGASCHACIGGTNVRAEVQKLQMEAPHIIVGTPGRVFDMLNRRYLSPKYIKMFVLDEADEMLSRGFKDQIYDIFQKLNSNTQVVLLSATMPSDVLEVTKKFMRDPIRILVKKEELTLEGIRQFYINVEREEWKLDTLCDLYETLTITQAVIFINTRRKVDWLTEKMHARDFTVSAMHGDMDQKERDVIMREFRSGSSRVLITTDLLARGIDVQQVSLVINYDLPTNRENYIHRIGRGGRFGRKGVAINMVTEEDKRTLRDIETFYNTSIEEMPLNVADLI
| Sequence | 4-mer enrichment [fold] |
| --- | --- |
| UACC | 1.41 |
| GCCA | 1.43 |
| UGAA | 1.05 |
| UAGA | 0.828 |
| CGAU | 0.985 |
| AUAC | 1.01 |
| CUUG | 1.09 |
| AAGU | 0.866 |

Mixed results
Parent: viral docking peptide; KGVKRKLFAEDSS; partner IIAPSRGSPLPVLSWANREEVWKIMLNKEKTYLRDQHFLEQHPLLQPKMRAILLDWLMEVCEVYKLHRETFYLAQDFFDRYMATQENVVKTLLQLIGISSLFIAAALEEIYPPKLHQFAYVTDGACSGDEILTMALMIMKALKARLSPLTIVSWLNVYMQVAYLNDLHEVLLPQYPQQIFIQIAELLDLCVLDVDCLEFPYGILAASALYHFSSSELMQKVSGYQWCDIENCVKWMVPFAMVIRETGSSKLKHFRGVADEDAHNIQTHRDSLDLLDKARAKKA
| Substitution | target | assay | test system | setting | how to read | quantity | result |
| --- | --- | --- | --- | --- | --- | --- | --- |
| KGVKRKWFAEDSS [L7W] | CCNE1, cyclin fold, Cln2 fusion (human) | yeast growth competition, sequencing | yeast | strong parent motif | reference: not given, higher = stronger binding | normalised enrichment score | -0.232 |
